Results pooled from the literature.
A part holds a random share of what one study measured.
Chain of UniProt P54762 (whole entry, looked up): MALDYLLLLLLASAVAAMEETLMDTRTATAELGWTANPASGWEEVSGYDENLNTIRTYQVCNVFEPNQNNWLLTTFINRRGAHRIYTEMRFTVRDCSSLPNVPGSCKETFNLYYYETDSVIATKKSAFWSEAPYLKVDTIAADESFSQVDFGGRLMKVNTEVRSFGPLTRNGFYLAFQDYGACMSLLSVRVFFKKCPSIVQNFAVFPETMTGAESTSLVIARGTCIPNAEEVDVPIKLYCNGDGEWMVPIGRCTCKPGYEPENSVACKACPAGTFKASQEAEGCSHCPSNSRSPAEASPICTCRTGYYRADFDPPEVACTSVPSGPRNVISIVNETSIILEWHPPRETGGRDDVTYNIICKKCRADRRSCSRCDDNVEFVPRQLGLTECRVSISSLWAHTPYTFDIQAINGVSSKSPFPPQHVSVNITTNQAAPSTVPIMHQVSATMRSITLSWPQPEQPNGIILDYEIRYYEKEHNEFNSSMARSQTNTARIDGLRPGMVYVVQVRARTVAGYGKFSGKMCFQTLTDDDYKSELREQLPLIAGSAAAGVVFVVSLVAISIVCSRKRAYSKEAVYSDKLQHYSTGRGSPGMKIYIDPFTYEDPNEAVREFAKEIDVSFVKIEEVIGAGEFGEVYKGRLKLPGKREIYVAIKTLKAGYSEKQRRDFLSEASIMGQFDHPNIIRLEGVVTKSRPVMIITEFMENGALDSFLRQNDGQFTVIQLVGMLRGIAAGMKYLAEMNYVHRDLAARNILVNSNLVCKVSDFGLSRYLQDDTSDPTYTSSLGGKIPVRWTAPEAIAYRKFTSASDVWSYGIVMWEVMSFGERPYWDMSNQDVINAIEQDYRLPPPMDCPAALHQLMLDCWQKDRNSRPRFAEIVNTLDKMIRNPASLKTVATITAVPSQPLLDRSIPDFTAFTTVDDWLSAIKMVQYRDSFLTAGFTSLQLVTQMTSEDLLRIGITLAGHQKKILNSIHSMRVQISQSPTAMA
Chain of UniProt Q13177 (whole entry, looked up): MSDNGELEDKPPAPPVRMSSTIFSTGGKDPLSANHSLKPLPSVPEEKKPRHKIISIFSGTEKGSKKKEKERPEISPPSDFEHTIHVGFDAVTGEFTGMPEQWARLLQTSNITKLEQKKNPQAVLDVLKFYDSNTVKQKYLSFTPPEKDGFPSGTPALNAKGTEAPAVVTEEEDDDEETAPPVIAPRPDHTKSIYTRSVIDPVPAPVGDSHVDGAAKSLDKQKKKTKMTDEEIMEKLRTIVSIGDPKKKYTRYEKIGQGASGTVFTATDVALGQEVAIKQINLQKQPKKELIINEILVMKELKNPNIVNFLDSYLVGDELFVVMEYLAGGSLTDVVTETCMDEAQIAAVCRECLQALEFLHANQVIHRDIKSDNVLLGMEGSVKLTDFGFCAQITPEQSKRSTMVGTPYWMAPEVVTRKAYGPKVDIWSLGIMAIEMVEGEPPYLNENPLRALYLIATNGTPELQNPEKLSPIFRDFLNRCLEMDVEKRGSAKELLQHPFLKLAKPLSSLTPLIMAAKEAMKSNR
Chain of UniProt O43781 (whole entry, looked up): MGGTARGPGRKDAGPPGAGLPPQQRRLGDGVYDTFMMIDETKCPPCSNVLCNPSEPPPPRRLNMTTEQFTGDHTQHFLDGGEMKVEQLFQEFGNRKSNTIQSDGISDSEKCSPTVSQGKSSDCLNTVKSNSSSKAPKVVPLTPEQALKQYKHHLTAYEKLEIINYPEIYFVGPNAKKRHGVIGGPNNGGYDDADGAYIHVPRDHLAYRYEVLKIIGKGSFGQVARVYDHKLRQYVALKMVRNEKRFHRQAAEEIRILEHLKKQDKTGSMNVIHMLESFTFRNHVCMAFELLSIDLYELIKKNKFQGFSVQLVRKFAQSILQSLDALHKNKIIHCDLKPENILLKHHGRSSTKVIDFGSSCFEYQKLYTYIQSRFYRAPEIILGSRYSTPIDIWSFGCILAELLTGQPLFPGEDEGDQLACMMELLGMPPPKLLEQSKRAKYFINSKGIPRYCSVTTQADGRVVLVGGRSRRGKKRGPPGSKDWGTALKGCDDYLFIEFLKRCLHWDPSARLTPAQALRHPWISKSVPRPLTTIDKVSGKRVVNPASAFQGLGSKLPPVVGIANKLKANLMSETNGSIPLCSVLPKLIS
Chain of UniProt P00519 (whole entry, looked up): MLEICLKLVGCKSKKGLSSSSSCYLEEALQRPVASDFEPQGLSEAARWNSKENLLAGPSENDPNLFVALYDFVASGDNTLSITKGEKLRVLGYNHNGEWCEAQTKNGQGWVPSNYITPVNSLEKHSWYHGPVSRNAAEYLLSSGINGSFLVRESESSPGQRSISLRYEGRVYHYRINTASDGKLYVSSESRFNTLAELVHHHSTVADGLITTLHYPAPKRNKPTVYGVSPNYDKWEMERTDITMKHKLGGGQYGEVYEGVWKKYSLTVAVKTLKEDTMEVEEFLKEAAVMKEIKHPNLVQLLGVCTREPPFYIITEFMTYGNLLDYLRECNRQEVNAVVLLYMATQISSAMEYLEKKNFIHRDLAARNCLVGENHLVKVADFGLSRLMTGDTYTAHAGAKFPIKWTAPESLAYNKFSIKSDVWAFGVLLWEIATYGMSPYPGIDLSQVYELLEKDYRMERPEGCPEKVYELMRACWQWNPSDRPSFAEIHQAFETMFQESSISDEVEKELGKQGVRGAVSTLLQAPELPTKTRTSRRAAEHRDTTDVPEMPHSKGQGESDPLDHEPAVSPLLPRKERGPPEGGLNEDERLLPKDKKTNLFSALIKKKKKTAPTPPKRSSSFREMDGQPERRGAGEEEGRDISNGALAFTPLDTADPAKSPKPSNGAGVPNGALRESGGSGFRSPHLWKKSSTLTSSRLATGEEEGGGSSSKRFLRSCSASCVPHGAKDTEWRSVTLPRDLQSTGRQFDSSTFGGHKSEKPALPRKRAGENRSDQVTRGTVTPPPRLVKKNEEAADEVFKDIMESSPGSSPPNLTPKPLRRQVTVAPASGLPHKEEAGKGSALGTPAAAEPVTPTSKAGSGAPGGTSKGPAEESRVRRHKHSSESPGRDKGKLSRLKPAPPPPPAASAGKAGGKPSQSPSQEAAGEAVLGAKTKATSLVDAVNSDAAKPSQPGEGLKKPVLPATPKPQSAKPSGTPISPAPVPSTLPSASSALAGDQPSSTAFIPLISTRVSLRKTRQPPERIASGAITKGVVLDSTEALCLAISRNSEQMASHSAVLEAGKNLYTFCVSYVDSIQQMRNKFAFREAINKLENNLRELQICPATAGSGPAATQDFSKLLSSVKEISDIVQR
Chain of UniProt Q9UK32 (whole entry, looked up): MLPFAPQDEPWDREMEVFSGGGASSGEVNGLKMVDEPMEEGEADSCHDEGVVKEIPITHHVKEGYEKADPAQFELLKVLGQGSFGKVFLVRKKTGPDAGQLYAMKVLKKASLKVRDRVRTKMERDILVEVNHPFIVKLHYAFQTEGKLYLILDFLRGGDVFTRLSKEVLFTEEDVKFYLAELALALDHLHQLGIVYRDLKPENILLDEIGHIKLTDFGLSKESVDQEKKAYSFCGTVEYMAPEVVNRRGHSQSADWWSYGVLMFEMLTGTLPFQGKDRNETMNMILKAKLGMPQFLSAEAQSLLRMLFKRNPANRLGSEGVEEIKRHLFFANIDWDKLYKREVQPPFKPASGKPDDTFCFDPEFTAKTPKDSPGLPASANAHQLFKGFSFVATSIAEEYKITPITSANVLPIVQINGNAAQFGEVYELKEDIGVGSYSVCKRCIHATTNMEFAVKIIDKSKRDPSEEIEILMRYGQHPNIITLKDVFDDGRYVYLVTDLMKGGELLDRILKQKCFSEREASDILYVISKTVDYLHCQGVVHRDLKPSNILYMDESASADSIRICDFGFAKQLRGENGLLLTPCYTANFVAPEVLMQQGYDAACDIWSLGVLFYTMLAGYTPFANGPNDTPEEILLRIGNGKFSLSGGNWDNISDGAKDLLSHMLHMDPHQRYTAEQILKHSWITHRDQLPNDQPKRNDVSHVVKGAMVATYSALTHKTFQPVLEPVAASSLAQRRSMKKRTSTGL

Block 1
Compound: CCCCN(CCCC)C(=O)CN1C[C@H](c2cc(OC)c3c(c2)OCO3)[C@@H](C(=O)O)[C@@H]1CC(C)(C)CCC
Effect on: cell-free assay
Method: competition with immobilised ligand
Tested at: 1 µM
target | remaining binding
Serine/threonine-protein kinase WNK2 (WNK2, Homo sapiens, UniProt Q9Y3S1) | 60.2%
Serine/threonine-protein kinase mTOR (MTOR, Homo sapiens, UniProt P42345) | 100%
Serine/threonine-protein kinase PRP4 homolog (PRPF4B, Homo sapiens, UniProt Q13523) | 100%
Serine/threonine-protein kinase BRSK1 (BRSK1, Homo sapiens, UniProt Q8TDC3) | 100%
ALK tyrosine kinase receptor (ALK, Homo sapiens, UniProt Q9UM73) | 58.3%
Serine/threonine-protein kinase PAK 4 (PAK4, Homo sapiens, UniProt O96013) | 100%
Serine/threonine-protein kinase PAK 2 (PAK2, Homo sapiens, UniProt Q13177) | 100%
Serine/threonine-protein kinase D3 (PRKD3, Homo sapiens, UniProt O94806) | 90.2%
Serine/threonine-protein kinase 35 (STK35, Homo sapiens, UniProt Q8TDR2) | 100%

Block 2
Structure (SMILES): C=CCc1ccc(O)c(-c2cc(CC=C)ccc2O)c1
Effect on: chloride current
ANO1 del476-501/R541A: Anoctamin-1 (ANO1, Homo sapiens, UniProt Q5XXA6, del476-501/R541A)
Chain of UniProt Q5XXA6 (whole entry, unmodified, looked up): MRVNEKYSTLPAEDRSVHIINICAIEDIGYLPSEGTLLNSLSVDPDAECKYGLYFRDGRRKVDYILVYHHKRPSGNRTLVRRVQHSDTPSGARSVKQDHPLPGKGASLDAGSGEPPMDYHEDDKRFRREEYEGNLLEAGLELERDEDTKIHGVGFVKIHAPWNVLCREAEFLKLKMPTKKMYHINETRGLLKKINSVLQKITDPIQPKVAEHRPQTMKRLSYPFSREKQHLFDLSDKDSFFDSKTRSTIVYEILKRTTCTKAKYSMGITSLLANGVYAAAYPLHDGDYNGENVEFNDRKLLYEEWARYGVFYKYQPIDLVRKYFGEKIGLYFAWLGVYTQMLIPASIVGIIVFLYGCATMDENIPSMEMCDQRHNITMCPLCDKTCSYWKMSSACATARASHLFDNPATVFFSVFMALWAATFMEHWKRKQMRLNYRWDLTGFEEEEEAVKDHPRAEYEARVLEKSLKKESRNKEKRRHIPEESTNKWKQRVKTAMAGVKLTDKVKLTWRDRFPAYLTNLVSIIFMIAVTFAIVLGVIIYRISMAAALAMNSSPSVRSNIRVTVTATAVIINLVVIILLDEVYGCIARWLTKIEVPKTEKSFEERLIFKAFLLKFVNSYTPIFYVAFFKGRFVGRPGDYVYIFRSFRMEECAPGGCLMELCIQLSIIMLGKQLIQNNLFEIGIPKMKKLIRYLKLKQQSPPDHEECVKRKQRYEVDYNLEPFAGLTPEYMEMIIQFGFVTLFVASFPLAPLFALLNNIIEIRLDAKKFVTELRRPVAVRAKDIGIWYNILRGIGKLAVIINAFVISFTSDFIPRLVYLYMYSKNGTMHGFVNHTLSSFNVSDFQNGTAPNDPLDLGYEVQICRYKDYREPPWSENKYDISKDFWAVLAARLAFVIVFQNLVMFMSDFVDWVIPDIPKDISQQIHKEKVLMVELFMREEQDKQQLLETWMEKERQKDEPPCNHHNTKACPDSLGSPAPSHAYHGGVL
ANO1 del476-501/E659A: Anoctamin-1 (ANO1, Homo sapiens, UniProt Q5XXA6, del476-501/E659A)
target | action | method | tested at | setting | added | normalized current
ANO1 del476-501/R541A | – | whole-cell voltage clamp | 3 µM | membrane voltage -20 mV | 4 µM Ca2+ (saturating) | -0.135
Anoctamin-1 (ANO1, Homo sapiens, UniProt Q5XXA6, del476-501) | – | whole-cell voltage clamp | 3 µM | membrane voltage 0 mV | 4 µM Ca2+ (saturating) | -0.0016
Anoctamin-1 (ANO1, Homo sapiens, UniProt Q5XXA6) | – | inside-out patch clamp | 30 µM | membrane voltage 80 mV | – | 0.693
ANO1 del476-501/R541A | inhibitor | whole-cell voltage clamp | 30 µM | R515A mutant | – | 0.895
ANO1 del476-501/R541A | – | whole-cell voltage clamp | 100 µM | membrane voltage 0 mV | 4 µM Ca2+ (saturating) | -0.0017
ANO1 del476-501/E659A | – | inside-out patch clamp | 30 µM | membrane voltage -40 mV | – | -0.397
TMEM16A (human) K603A/E623A | – | inside-out patch clamp | 30 µM | membrane voltage 100 mV | – | 0.706
ANO1 del476-501/E659A | – | inside-out patch clamp | 30 µM | membrane voltage 0 mV | – | 0.0033

Block 3
Species: human
Sample: microsomes or S9
Tested at: 2 µM
Time: 0.5 h
Compound | remaining compound
OCCN(Cc1ccccc1)CC(O)COc1c(F)cc(Br)cc1F (stereo not shown) | > 99.9%
CCN(CCCNc1nc(-c2ccccc2)no1)c1ccccc1 | 1.53%
Cc1c2c(=O)[nH]cnc2c(C(=O)c2ccccc2)n1-c1ccccc1 | 12.8%
Cc1nc(C)c(COCc2ccccc2)c(-c2ccc(Cl)cc2)c1CO | 51.7%
CCCOCC1CC(n2cncn2)C(c2ccc(Cl)cc2)=NO1 (stereo not shown) | 45.2%
CC(=O)Oc1cc(OC(C)=O)c2c(c1)-c1coc3cc(OC(C)=O)cc(c13)C2=O | 0.00529%
Cn1nc2c(c1C(=O)N1CCC(C3CCCCN3S(C)(=O)=O)CC1)CCCC2 (stereo not shown) | 8.48%
COc1cc(Br)c(S(=O)(=O)N[C@@H]2CCCN(C(=O)c3ccccc3)C2)cc1OC | 37.5%
Cc1cc(S(=O)(=O)N[C@H]2CC[C@H]2NC2CCN(C(C)C)CC2)c(C)s1 | 20.4%
Cc1nn(C)cc1-c1cncn1C(C)Cc1c(C)nn(C)c1C (stereo not shown) | 89.9%
Fc1ccc2nc(-c3csc(-c4ccco4)n3)[nH]c2c1 | 0.377%
Nc1c(-c2nc(-c3cccc(Br)c3)cs2)nnn1-c1ccc(F)cc1F | 36.4%

Block 4
SMILES: COc1cc2ncnc(Nc3ccc(OCc4ccccc4)cc3)c2cc1OC
Effect on: enzyme activity
Action: inhibitor
Tested at: 0.5 µM
Reference: control
target | remaining activity [%]
Mitogen-activated protein kinase kinase kinase kinase 4 (MAP4K4, Homo sapiens, UniProt O95819) | 103
Ephrin type-B receptor 4 (EPHB4, Homo sapiens, UniProt P54760) | 94.6
Serine/threonine-protein kinase 17A (STK17A, Homo sapiens, UniProt Q9UEE5) | 99.6
Tyrosine-protein kinase Blk (BLK, Homo sapiens, UniProt P51451) | 88.2
Tyrosine-protein kinase receptor UFO (AXL, Homo sapiens, UniProt P30530) | 94.8
Cyclin-dependent kinase 1, with cyclin B (CDK1, Homo sapiens, UniProt P06493) | 89.9
Ribosomal protein S6 kinase alpha-6 (RPS6KA6, Homo sapiens, UniProt Q9UK32) | 95.9
Serine/threonine-protein kinase WNK3 (WNK3, Homo sapiens, UniProt Q9BYP7) | 90.8
Ephrin type-B receptor 1 (EPHB1, Homo sapiens, UniProt P54762) | 101
Cyclin-dependent kinase 6, with cyclin D3 (CDK6, Homo sapiens, UniProt Q00534) | 97.8
3-phosphoinositide-dependent protein kinase 1 (PDPK1, Homo sapiens, UniProt O15530) | 103
Phosphorylase b kinase gamma catalytic chain, skeletal muscle/heart isoform (PHKG1, Homo sapiens, UniProt Q16816) | 100
Testis-specific serine/threonine-protein kinase 2 (TSSK2, Homo sapiens, UniProt Q96PF2) | 104
Tyrosine-protein kinase Srms (SRMS, Homo sapiens, UniProt Q9H3Y6) | 104
Homeodomain-interacting protein kinase 4 (HIPK4, Homo sapiens, UniProt Q8NE63) | 100
Ephrin type-A receptor 4 (EPHA4, Homo sapiens, UniProt P54764) | 98.5
Cyclin-dependent kinase 4, with cyclin D3 (CDK4, Homo sapiens, UniProt P11802) | 102
Homeodomain-interacting protein kinase 2 (HIPK2, Homo sapiens, UniProt Q9H2X6) | 111
Calcium/calmodulin-dependent protein kinase type II subunit beta (CAMK2B, Homo sapiens, UniProt Q13554) | 105
Serine/threonine-protein kinase 16 (STK16, Homo sapiens, UniProt O75716) | 106
MAP kinase-activated protein kinase 3 (MAPKAPK3, Homo sapiens, UniProt Q16644) | 102
Tyrosine-protein kinase ABL1 (ABL1, Homo sapiens, UniProt P00519) | 98
Dual specificity tyrosine-phosphorylation-regulated kinase 3 (DYRK3, Homo sapiens, UniProt O43781) | 101

A few entries again (block 3):
Compound | remaining compound
OCCN(Cc1ccccc1)CC(O)COc1c(F)cc(Br)cc1F (stereo not shown) | > 99.9%
CCN(CCCNc1nc(-c2ccccc2)no1)c1ccccc1 | 1.53%
Cc1c2c(=O)[nH]cnc2c(C(=O)c2ccccc2)n1-c1ccccc1 | 12.8%
Cc1nc(C)c(COCc2ccccc2)c(-c2ccc(Cl)cc2)c1CO | 51.7%
CCCOCC1CC(n2cncn2)C(c2ccc(Cl)cc2)=NO1 (stereo not shown) | 45.2%
CC(=O)Oc1cc(OC(C)=O)c2c(c1)-c1coc3cc(OC(C)=O)cc(c13)C2=O | 0.00529%
Cn1nc2c(c1C(=O)N1CCC(C3CCCCN3S(C)(=O)=O)CC1)CCCC2 (stereo not shown) | 8.48%
